Results pooled from the literature.
Compare with care: the assays were run in different laboratories. ± marks the error that the study gave.
Organism: Plasmodium falciparum

SMILES | assay | system | setting | IC50
CC(C)(Sc1ccc(CCN(CCCCC2CCCCC2)C(=O)NC2CCCCC2)cc1)C(=O)O | growth, SYBR green | FVO | 36 h | inactive
O=C1C(O)=C([C@H]2CC[C@H](c3ccc(Cl)cc3)CC2)C(=O)c2ccccc21 | growth | C2B | 96 h | 13.7 ± 0.9 µM
CC(CN1c2ccccc2Sc2ccccc21)N(C)C (stereo not shown) |  | HB3 |  | 10 µM
N=C(CC(O)c1cc2c(F)cc(F)cc2c2cc(C(F)(F)F)ccc12)Nc1ccc(Br)c(F)c1 (stereo not shown) | parasite growth, HRP2 ELISA | clinical isolates from Gabon | ex vivo, range over isolates | 0.0017 to 0.0299 µM
CO[C@H]1C[C@@H](C[C@H](C)[C@H]2CC(=O)[C@@H](C)/C=C(\C)[C@H](O)[C@H](OC)C(=O)[C@@H](C)C[C@@H](C)/C=C/C=C/C=C(\C)[C@H](OC)C[C@H]3CC[C@H](C)[C@](O)(O3)C(=O)C(=O)N3CCCC[C@@H]3C(=O)O2)CC[C@@H]1OCCO (racemic) | parasite growth, inhibitor, SYBR Green I | Cam3.1 R539T (MRA-1240) |  | 2.68 µM
O=C(O)c1cn(C2CC2)c2cc(N3CCNCC3)c(F)cc2c1=O | parasite proliferation, SYBR Green | 3D7 | erythrocytic stage | 8 µM
CC(=O)c1c(O)c(C)c(O)c2c1OC1=CC(=O)C(C(C)=O)C(=O)C12C (single isomer, unassigned; (+)) | parasite growth, [3H]hypoxanthine incorporation | K1 | erythrocytic stages | 15.3 µM
C[C@H]1c2cccc(O)c2C(=O)C2=C(O)[C@]3(O)C(=O)C(C(N)=O)=C(O)[C@@H](N(C)C)[C@@H]3[C@@H](O)[C@@H]21 |  | D10 |  | 10 µM
CC(C)Cn1c(=O)n(C)c(=O)c2c(-c3cncn3C)n(Cc3cccc4ccccc34)nc21 | parasite growth, inhibitor, SYBR Green I | Cam3.1 R539T (MRA-1240) |  | 15.7 µM
O=C(Cc1ccc(Cl)c(Cl)c1)N1CCCCC1CN1CCCC1 (stereo not shown) |  | Dd2 |  | 10 µM
CCN(CC)CCCC(C)Nc1ccnc2cc(Cl)ccc12 (stereo not shown) | parasite growth | K1 | 72 h | 0.0877 ± 0.005 µM
CN(C)CCCN1c2ccccc2C(C)(C)c2ccccc21 | growth, SYBR Green | FVO | 36 h | 30 µM
C=CCc1ccccc1OCC(O)CNC1(C)CCC(C(C)(C)NC(=O)CBr)CC1 (stereo not shown) |  | D10 |  | 6.31 µM
CN1CCC(NCc2cccc(-c3ccc(S(=O)(=O)NCc4ccccc4)cc3)c2)CC1 | parasite growth, inhibitor, SYBR Green I | Cam3.1 R539T (MRA-1240) |  | 0.253 µM
NC(=Nc1ccccc1)NC(=O)c1nc(Cl)c(N)nc1N |  | GB4 |  | 12.6 µM
Oc1cccc(C(Nc2nccs2)c2ccc3cccnc3c2O)c1 (stereo not shown) | parasite growth, inhibitor, SYBR Green I | Cam3.1 R539T (MRA-1240) |  | 1.49 µM
O=C1N=c2cc(Cl)c(Cl)cc2=NC1=O |  | HB3 |  | 2.51 µM
CC1(C)N=C(N)N=C(N)N1c1ccc(Cl)cc1 | growth, [3H]-hypoxanthine uptake | FCR3 | 96 h | 1.26 ± 0.62 µM
CC(C)(C)C(O)C(Oc1ccc(-c2ccccc2)cc1)n1cncn1 (stereo not shown) | parasite growth, inhibitor, SYBR Green I | 3D7 |  | 22.9 µM
N=C(CC(O)c1cc2c(F)cc(F)cc2c2cc(C(F)(F)F)ccc12)Nc1cc(F)c(F)c(F)c1 (stereo not shown) | parasite growth, HRP2-ELISA | clinical isolates from Gabon | ex vivo, median | 0.0064 µM
Cl.Oc1cccc2c1[nH]c1c(C3=CC4(O)CC/C=C\CCCCN5CCC3C3(CC6/C=C\CCCCN6C43)C5)nccc12 (single isomer, unassigned; (+)) |  | W2, chloroquine-resistant | 72 h | 0.0365 ± 0.0015 µg/mL
C=CCc1ccccc1OCC(O)CNC(C)C (stereo not shown) |  | GB4 |  | 2 µM
CCN(CC)CCCC(C)Nc1ccnc2cc(Cl)ccc12 (stereo not shown) | growth, [3H]-hypoxanthine uptake | Dd2 | 48 h | 0.023 ± 0.001 µM
O=C(O)/C=C/C=C/c1cccc(Oc2cc(Cl)cc(Cl)c2)c1 | parasite growth, inhibitor, SYBR Green I | Cam3.1 R539T (MRA-1240) |  | > 100 µM
CN(C)CCCN1c2ccccc2Sc2ccccc21 |  | HB3 |  | 10 µM

Excerpt of the above:
SMILES | assay | system | setting | IC50
CN1CCC(NCc2cccc(-c3ccc(S(=O)(=O)NCc4ccccc4)cc3)c2)CC1 | parasite growth, inhibitor, SYBR Green I | Cam3.1 R539T (MRA-1240) |  | 0.253 µM
NC(=Nc1ccccc1)NC(=O)c1nc(Cl)c(N)nc1N |  | GB4 |  | 12.6 µM
